Assay results of several laboratories.
Protocols differ between the studies behind these lines. Several values in a cell are separate wells, animals, samples, runs or records. ± marks the error that the study gave.
ache: Acetylcholinesterase (ache, Electrophorus electricus, UniProt O42275)
Sequence of UniProt Q16539 (whole entry, looked up): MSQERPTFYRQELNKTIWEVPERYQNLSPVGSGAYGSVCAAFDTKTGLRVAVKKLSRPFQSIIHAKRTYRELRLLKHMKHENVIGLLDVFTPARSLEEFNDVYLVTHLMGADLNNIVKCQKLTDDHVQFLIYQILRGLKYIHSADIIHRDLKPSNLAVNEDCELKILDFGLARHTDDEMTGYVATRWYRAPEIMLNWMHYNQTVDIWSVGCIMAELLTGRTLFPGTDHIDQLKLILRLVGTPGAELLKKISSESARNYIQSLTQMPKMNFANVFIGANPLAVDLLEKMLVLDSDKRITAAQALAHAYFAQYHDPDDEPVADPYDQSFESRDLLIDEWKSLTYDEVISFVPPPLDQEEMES
Sequence of UniProt Q007T0 (whole entry, looked up): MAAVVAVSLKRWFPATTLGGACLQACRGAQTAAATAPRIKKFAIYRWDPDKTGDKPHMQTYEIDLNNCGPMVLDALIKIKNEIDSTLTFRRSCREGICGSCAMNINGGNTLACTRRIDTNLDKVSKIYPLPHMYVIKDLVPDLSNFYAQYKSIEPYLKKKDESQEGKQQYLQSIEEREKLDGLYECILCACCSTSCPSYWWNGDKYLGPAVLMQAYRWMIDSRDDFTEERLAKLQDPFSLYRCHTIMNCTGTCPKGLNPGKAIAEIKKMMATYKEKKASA
Sequence of UniProt O42275 (whole entry, looked up): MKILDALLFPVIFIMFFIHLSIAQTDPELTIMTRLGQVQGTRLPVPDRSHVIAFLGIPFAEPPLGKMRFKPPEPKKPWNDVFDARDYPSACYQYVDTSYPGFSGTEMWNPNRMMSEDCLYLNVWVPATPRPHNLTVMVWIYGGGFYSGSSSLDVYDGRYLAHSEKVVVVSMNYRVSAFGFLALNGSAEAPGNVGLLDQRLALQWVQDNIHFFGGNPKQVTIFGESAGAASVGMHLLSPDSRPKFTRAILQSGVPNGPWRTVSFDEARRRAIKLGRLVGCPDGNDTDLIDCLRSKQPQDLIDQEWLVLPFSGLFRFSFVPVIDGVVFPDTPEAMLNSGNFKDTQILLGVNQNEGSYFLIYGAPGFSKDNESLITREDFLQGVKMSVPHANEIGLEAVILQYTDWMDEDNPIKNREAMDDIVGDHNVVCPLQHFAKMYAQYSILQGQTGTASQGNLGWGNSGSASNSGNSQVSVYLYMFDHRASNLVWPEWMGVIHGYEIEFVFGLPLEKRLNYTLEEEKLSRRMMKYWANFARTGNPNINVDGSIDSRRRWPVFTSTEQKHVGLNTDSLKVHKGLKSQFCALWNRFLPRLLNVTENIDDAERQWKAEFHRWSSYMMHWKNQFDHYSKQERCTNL
Sequence of UniProt D0VWV4 (whole entry, looked up): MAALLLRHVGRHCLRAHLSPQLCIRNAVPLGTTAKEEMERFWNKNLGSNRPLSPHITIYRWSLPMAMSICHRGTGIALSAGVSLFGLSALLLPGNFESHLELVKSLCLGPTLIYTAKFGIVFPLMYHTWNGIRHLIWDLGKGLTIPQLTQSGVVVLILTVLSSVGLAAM
Sequence of UniProt A5GZW8 (whole entry, looked up): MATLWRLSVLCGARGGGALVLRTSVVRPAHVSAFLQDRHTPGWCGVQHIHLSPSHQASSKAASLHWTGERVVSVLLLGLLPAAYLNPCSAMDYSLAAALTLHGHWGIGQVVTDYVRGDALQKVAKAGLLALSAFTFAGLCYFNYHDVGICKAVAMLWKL
Sequence of UniProt Q9UK32 (whole entry, looked up): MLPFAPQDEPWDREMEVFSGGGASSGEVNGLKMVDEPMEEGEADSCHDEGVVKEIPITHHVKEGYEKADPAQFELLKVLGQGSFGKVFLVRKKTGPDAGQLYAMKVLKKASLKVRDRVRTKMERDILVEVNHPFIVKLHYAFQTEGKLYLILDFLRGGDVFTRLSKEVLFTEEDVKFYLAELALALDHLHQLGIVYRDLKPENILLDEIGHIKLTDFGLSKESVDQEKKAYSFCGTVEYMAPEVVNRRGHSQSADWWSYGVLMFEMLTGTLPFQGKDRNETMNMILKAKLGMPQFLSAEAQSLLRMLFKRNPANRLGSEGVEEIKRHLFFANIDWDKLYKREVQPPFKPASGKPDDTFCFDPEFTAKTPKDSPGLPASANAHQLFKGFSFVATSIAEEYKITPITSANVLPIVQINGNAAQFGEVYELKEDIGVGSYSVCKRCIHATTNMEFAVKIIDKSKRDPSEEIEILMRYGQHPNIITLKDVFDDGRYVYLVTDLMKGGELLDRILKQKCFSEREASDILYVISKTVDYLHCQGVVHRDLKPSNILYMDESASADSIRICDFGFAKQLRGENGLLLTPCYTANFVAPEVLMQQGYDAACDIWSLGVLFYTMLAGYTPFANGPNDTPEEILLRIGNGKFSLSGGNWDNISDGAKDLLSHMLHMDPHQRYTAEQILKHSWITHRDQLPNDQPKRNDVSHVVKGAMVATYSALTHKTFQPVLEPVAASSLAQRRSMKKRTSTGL
Sequence of UniProt P43144 (whole entry, looked up): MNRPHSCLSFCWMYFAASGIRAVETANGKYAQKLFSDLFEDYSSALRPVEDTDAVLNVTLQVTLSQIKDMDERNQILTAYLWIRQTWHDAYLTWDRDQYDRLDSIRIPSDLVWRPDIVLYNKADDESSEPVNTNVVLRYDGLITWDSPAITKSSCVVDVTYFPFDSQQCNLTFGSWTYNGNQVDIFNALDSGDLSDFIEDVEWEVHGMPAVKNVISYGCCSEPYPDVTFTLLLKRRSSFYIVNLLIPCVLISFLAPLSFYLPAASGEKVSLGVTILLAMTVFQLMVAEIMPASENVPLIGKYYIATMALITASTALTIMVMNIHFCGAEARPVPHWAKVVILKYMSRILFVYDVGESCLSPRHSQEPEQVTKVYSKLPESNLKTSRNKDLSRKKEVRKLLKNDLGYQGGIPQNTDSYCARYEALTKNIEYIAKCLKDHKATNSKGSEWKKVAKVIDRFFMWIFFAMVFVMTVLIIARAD
Sequence of UniProt Q96CP6 (whole entry, looked up): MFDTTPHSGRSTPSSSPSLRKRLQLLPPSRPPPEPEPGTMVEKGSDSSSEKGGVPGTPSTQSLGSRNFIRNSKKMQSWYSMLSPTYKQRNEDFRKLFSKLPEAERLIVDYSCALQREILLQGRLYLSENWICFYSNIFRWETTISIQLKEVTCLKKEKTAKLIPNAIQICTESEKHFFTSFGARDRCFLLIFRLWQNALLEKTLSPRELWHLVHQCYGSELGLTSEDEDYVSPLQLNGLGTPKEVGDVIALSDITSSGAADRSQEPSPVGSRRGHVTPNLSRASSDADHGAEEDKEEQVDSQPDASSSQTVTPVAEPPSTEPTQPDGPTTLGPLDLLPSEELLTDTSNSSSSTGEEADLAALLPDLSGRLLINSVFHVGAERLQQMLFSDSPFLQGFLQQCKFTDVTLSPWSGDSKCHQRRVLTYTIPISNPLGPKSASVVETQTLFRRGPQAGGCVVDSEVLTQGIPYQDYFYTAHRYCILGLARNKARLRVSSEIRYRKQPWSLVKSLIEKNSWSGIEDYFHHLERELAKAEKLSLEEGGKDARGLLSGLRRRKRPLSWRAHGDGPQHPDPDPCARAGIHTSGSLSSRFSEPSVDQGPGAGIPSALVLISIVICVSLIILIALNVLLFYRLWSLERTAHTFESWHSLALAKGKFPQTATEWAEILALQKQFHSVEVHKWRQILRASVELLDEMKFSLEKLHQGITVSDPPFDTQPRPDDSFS
Sequence of UniProt Q9JLB5 (whole entry, looked up): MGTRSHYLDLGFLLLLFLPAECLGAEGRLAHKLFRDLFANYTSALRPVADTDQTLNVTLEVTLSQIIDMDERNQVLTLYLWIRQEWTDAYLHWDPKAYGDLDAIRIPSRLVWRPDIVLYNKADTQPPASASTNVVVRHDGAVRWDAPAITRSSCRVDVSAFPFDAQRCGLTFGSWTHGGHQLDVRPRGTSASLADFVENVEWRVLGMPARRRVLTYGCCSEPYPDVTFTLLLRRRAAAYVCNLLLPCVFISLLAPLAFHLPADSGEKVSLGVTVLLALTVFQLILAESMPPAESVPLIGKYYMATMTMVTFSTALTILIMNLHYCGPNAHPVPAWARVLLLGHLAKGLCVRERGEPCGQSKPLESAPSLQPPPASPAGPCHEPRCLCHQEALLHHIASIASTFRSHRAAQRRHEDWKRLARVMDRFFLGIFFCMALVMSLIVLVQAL
Sequence of UniProt Q9UQB9 (whole entry, looked up): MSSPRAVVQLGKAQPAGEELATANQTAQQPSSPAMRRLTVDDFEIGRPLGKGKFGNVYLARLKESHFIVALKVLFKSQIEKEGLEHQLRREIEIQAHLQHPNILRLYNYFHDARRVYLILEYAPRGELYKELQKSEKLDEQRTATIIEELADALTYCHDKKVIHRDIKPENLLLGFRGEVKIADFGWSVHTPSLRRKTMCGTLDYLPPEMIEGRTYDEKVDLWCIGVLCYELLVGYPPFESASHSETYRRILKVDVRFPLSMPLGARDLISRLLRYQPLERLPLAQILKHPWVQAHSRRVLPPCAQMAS
Sequence of UniProt P00940 (whole entry, unmodified, looked up): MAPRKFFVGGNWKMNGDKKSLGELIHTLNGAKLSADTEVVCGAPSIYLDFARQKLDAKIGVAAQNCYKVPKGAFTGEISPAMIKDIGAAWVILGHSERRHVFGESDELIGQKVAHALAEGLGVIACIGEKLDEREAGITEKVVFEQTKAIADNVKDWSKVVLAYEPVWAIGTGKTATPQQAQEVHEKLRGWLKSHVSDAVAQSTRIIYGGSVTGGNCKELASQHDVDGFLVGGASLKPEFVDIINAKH
Sequence of UniProt Q63HM1 (whole entry, looked up): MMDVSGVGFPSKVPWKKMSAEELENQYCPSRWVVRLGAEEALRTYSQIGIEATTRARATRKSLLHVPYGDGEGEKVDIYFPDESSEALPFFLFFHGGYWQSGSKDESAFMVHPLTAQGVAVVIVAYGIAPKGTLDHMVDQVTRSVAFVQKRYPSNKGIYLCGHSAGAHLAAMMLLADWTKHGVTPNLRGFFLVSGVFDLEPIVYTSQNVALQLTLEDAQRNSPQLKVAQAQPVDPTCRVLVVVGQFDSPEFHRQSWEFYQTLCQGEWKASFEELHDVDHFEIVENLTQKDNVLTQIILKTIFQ

Compound	target	test	system	conditions	scale	endpoint	value
O=C(Nc1cccnn1)N1CCC(=Cc2cccc(Oc3ccc(C(F)(F)F)cn3)c2)CC1	HTR3A (Homo sapiens, UniProt P46098)	radioligand binding		10 µM, with: [3H]GR-65630		inhibition of binding	-14%
C[C@H]1COCCN1c1nc(NCc2cccnc2C(F)(F)F)c2cccnc2n1	PDE4D (Homo sapiens, UniProt Q08499)	binding		CEREP panel		IC50	14.6 µM
CC/C(=C(\c1ccc(O)cc1)c1ccc(OCCN(C)C)cc1)c1ccccc1	CNR2 (Homo sapiens, UniProt P34972)	item: cAMP	CHO-hCB2 cells	10 µM	reference: basal	adenylyl cyclase activity increase	175%
O=C(Nc1ccc([N+](=O)[O-])cc1Cl)c1cc(Cl)ccc1O	FABP1 (Homo sapiens, UniProt P07148)	affinity selection mass spectrometry		100 nM, with: pooled compounds	reference: other proteins	binding fold change	22
CN[C@@H]1C[C@H]2O[C@@](C)([C@@H]1OC)n1c3ccccc3c3c4c(c5c6ccccc6n2c5c31)C(=O)NC4	MAPK14 (Homo sapiens, UniProt Q16539)	kinase activity, Kinase-Glo luminescence		concentration not given		normalized luminescence	-0.0319 and -0.0476 and 0.00683
C=C(CN(C(=O)c1c(C(F)F)nn(C)c1F)C1CC1)c1ccc(Cl)cc1Cl	SDHD/SDHC/SDHB (Sus scrofa, UniProt A5GZW8+D0VWV4+Q007T0)	enzyme activity, inhibitor, DCIP reduction	pig	0.06 µM, with: DCIP 10 µM		reaction velocity	0.00541 µM/s and 0.00469 µM/s
Nc1ccc(O)c(C(=O)O)c1	ppk (Escherichia coli, UniProt P0A7B1)	enzyme activity, inhibitor		1 mM	reference: DMSO	polyP synthesis	inhibited
COc1ccc2c3c([nH]c2c1)CCN(C)CC3.O=C(O)/C=C/C(=O)O	Nicotinic acetylcholine receptor alpha9/alpha10 (Rattus norvegicus, UniProt P43144+Q9JLB5)	ion current, inhibitor, two-electrode voltage clamp	Xenopus laevis oocytes, rat	with: 100 µM acetylcholine		Hill coefficient	2 ± 0.2
N=C(N)NCCC[C@@H](N)C(=O)O	Alkaliphilus oremlandii ArgR	substrate				Km	385 ± 26 µM
CN1CCN(c2cc(-c3ccncc3)c(-c3ccc4ccccc4c3)nn2)CC1	DRD5 (Homo sapiens, UniProt P21918)	agonist, FLIPR		12.5 µM		activation	-1.1%
COc1ncccc1-c1cnn2ccc(N3CCN(C(=O)OC(C)C)CC3)nc12	Ribosomal protein S6 kinase alpha-6, C-terminal kinase domain (RPS6KA6, Homo sapiens, UniProt Q9UK32)	KINOMEscan binding		1 µM	reference: untreated control	remaining binding	100%
CCOC(=O)COc1ccc2c(=O)c3ccccc3oc2c1	ache	enzyme activity		0.42 µM, with: substrate 0.86 mM	higher = faster reaction	reaction velocity	0.0011 a.u.
NCCc1c[nH]c2ccc(O)cc12	AANAT1 pig	substrate, DTNB colorimetric		with: acetyl-CoA		Km	310 ± 170 µM
CN(C(=O)n1cnc(-c2ccc[n+]([O-])c2)c1)C1CCCCC1	EGF receptor			concentration not given		inhibition	-13%
Clc1ccc(Cl)c(-c2ccccc2Cl)c1	Estrogen receptor (ESR1, Homo sapiens, UniProt P03372)	reporter gene, agonist	T47D.luc	24 h	reference: estradiol	EC25	5 µM
O=C(O)C(/C=C/c1c(Cl)cccc1Cl)=N\Nc1nc(-c2ccc(Cl)cc2)cs1	ache	Ellman			reference: IC50 BChE over IC50 AChE	selectivity index	80
COc1cc(F)cc2c(N3CCN(c4ccccc4OC4CC4)CC3)c(C#N)nnc12	GRM8 (Homo sapiens, UniProt O00222)	positive allosteric modulator		concentration not given, with: glutamate		activity	inactive
[2H]c1c([2H])c([C@]2([2H])CCCN2C(=O)C(C)(C)Oc2ccc3cn[nH]c3c2)c([2H])c([2H])c1C([2H])([2H])[2H]	MAP3K2 (Homo sapiens, UniProt Q9Y2U5)	KINOMEscan		1 µM	reference: DMSO control	remaining binding	65%
O=C(O)COP(=O)(O)O	Triosephosphate isomerase (TPI1, Gallus gallus, UniProt P00940, G210A/S211G/Y208T)	enzyme activity, competitive inhibitor, GPDH/NADH-coupled		pH 9.3, 25 °C, ionic strength 0.1 NaCl, with: glyceraldehyde 3-phosphate substrate	reference: mutant over wild type	Ki ratio	4.2
CC(C)[C@@H](O)CC[C@@H](C)[C@H]1CC[C@H]2[C@@H]3CC=C4C[C@@H](O)CC[C@]4(C)[C@H]3CC[C@]12C	Glutamate NMDA receptor; GRIN1/GRIN2B (GRIN1/GRIN2B, Homo sapiens, UniProt Q05586+Q13224, S553A)	positive allosteric modulator, two-electrode voltage clamp	Xenopus oocytes expressing GluN1-S553A	10 µM, 0.02% cremophor, with: 100 µM glutamate and glycine	reference: without compound	current response	100 ± 9.2%
CC(C)C[C@@H]1NC(=O)[C@H](CC(=O)O)NC(=O)[C@@H]2CCCN2C(=O)[C@@H](NC(=S)Nc2ccc3c(c2)C(=O)OC32c3ccc(O)cc3Oc3cc(O)ccc32)CSCc2cccc(c2)CSC[C@@H](C(N)=O)NC1=O	Kelch-like protein 20 (Homo sapiens, UniProt Q9Y2M5)	binding, pull-down proteomics	PC-3 lysates	concentration not given	reference: control probe	log2 fold change	11
COc1ccc(N2C(=O)N(c3c(C)cccc3Cl)Cc3cnc(Nc4ccc(C5CCN(C)CC5)cc4OC)nc32)nc1	Aurora kinase C (AURKC, Homo sapiens, UniProt Q9UQB9)	kinase activity, inhibitor		0.5 µM, kinase AURORA-C		inhibition	6%
CCCCCC(=O)N[C@H]1CCOC1=O	Regulatory protein SdiA (sdiA, Escherichia coli, UniProt P07026)					Emax	95.3%
C[C@H]1CN(c2n[nH]c3nc(N[C@H]4CC[C@H](NS(=O)(=O)CCC(F)(F)F)CC4)ncc23)CCO1	Protein Aster-A (Homo sapiens, UniProt Q96CP6)	Kinobeads competition, item: GRAMD1A		0.032 µM, unit not given	reference: vehicle	remaining binding	1.5
O=C(c1ccc(Cl)cc1)N1CCN2C(=O)N(OC(=O)N3CCOc4ccccc43)C(=O)C2C1 (stereo not shown)	Kynurenine formamidase (AFMID, Homo sapiens, UniProt Q63HM1)	MS-based ABPP	SW-620 conditioned medium	10 µM, 1 h, 37 °C	reference: compound over DMSO, lower = more inhibition	median protein ratio	1.27
Nc1ncc(-c2nc(N3CCOCC3)nc(N3CCOCC3)n2)c(C(F)F)n1	CDC42BPG (Homo sapiens, UniProt Q6DT37)	KINOMEscan		10 µM	reference: control	remaining binding	77%
O=C(O)COc1ccc(Cl)cc1Cl	SLC22A6 (Homo sapiens, UniProt Q4U2R8)	inhibitor, uptake	HEK293 transfected with SLC22A6	200 µM, with: 4-aminohippuric acid		uptake	inhibited
O=C(NNC(=O)c1csnn1)c1ccc(Cl)cc1	Acetyl-CoA synthetase (Cryptococcus neoformans, UniProt J9VFT1)			12.5 µM		remaining activity	11.9%

A few entries again:
Compound	target	test	system	conditions	scale	endpoint	value
CC/C(=C(\c1ccc(O)cc1)c1ccc(OCCN(C)C)cc1)c1ccccc1	CNR2 (Homo sapiens, UniProt P34972)	item: cAMP	CHO-hCB2 cells	10 µM	reference: basal	adenylyl cyclase activity increase	175%
O=C(Nc1ccc([N+](=O)[O-])cc1Cl)c1cc(Cl)ccc1O	FABP1 (Homo sapiens, UniProt P07148)	affinity selection mass spectrometry		100 nM, with: pooled compounds	reference: other proteins	binding fold change	22
